Published values gathered from unrelated publications.
Protocols differ between the studies behind these lines.
Organism: Pseudomonas aeruginosa

The biofilm inhibition of `CC[C@H](C)[C@H](NC(=O)[C@H](CCCNC(=N)N)NC(=O)[C@H](CCCNC(=N)N)NC(=O)[C@H](CC(C)C)NC(=O)[C@H](CCC(N)=O)NC(=O)[C@@H](N)C(C)C)C(=O)N[C@@H](CCCNC(=N)N)C(=O)N[C@H](C(=O)N[C@@H](Cc1c[nH]c2ccccc12)C(=O)N[C@H](C(=O)N[C@H](C(=O)N[C@@H](CCCNC(=N)N)C(N)=O)[C@@H](C)CC)C(C)C)C(C)C` is reported as 12.7% (propidium iodide staining; gfp-tagged; 10 µg/mL, added at start, shear flow).
With `CC[C@H](C)[C@H](NC(=O)[C@H](CCCCN)NC(=O)[C@H](CCCCN)NC(=O)[C@H](CC(C)C)NC(=O)[C@H](CCCCN)NC(=O)[C@H](CCC(=O)O)NC(=O)[C@H](CCCCN)NC(=O)[C@@H](NC(=O)[C@H](CCCCN)NC(=O)[C@H](CC(N)=O)NC(=O)[C@H](CCCNC(=N)N)NC(=O)[C@H](Cc1ccccc1)NC(=O)[C@H](CCCCN)NC(=O)[C@H](CCCNC(=N)N)NC(=O)[C@H](CC(C)C)NC(=O)[C@H](CCCNC(=N)N)NC(=O)[C@H](CCCCN)NC(=O)[C@H](CCCNC(=N)N)NC(=O)[C@H](CC(C)C)NC(=O)[C@@H](N)CC(C)C)[C@@H](C)CC)C(=O)NCC(=O)N[C@@H](CCC(N)=O)C(=O)N[C@@H](CCCCN)C(=O)N[C@H](C(=O)N[C@@H](CCC(N)=O)C(=O)NCC(=O)N[C@@H](Cc1ccccc1)C(=O)N[C@H](C(=O)N1CCC[C@H]1C(=O)N[C@@H](CCCCN)C(=O)N[C@@H](CC(C)C)C(=O)N[C@H](C(=O)N1CCC[C@H]1C(=O)N[C@@H](CCCNC(=N)N)C(=O)N[C@H](C(=O)N[C@@H](CCC(=O)O)C(=O)N[C@@H](CO)C(=O)O)[C@@H](C)O)C(C)C)C(C)C)[C@@H](C)CC` the lethal concentration was 2.89 µM (inhibition zone; DH).
With `CCCC(=O)NCC(=O)N[C@@H](CC(C)C)C(=O)N[C@@H](CC(C)C)C(=O)N[C@@H](CCCCN)C(=O)N[C@@H](CCCNC(=N)N)C(=O)N[C@H](C(=O)N[C@@H](CCCCN)C(=O)N[C@H](C(=O)N[C@@H](CC(C)C)C(=O)N[C@@H](CC(C)C)C(=O)NCCCC[C@H](NC(=O)[C@H](CC(C)C)NC(=O)[C@H](CC(C)C)NC(=O)[C@@H](NC(=O)[C@H](CCCCN)NC(=O)[C@@H](NC(=O)[C@H](CCCNC(=N)N)NC(=O)[C@H](CCCCN)NC(=O)[C@H](CC(C)C)NC(=O)[C@H](CC(C)C)NC(=O)CNC(=O)CCC)[C@@H](C)CC)[C@@H](C)O)C(=O)NCCCC[C@H](NC(=O)[C@H](CCCCNC(=O)[C@H](CC(C)C)NC(=O)[C@H](CC(C)C)NC(=O)[C@@H](NC(=O)[C@H](CCCCN)NC(=O)[C@@H](NC(=O)[C@H](CCCNC(=N)N)NC(=O)[C@H](CCCCN)NC(=O)[C@H](CC(C)C)NC(=O)[C@H](CC(C)C)NC(=O)CNC(=O)CCC)[C@@H](C)CC)[C@@H](C)O)NC(=O)[C@H](CC(C)C)NC(=O)[C@H](CC(C)C)NC(=O)[C@@H](NC(=O)[C@H](CCCCN)NC(=O)[C@@H](NC(=O)[C@H](CCCNC(=N)N)NC(=O)[C@H](CCCCN)NC(=O)[C@H](CC(C)C)NC(=O)[C@H](CC(C)C)NC(=O)CNC(=O)CCC)[C@@H](C)CC)[C@@H](C)O)C(N)=O)[C@@H](C)O)[C@@H](C)CC` the FIC index was 0.25 (checkerboard; ATCC 27853; together with: rifampicin).
`CC(C)C[C@H](NC(=O)[C@@H]1CSCC(=O)N[C@@H](CCCCN)C(=O)N[C@@H](CC(C)C)C(=O)N[C@@H](CCCCN)C(=O)NCCCC[C@@H]2NC(=O)[C@H](CCCCN)NC(=O)[C@H](CC(C)C)NC(=O)[C@H](CCCCN)NC(=O)CSC[C@H](NC(=O)[C@H](CC(C)C)NC(=O)[C@H](CC(C)C)NC(=O)[C@H](CCCCN)NC2=O)C(=O)N[C@@H](CCCCN)C(=O)N[C@@H](CC(C)C)C(=O)N[C@@H](CCCCN)C(=O)N1)C(N)=O` — result for “minimal biofilm inhibitory concentration”: 16 µg/mL (PAO1; 24 to 25 h).
`CC[C@H](C)[C@H](NC(=O)[C@H](CCCCN)NC(=O)[C@H](CCCCN)NC(=O)[C@H](CC(C)C)NC(=O)[C@H](CCCCN)NC(=O)[C@H](CCC(=O)O)NC(=O)[C@H](CCCCN)NC(=O)[C@@H](NC(=O)[C@H](CCCCN)NC(=O)[C@H](CC(N)=O)NC(=O)[C@H](CCCNC(=N)N)NC(=O)[C@H](Cc1ccccc1)NC(=O)[C@H](CCCCN)NC(=O)[C@H](CCCNC(=N)N)NC(=O)[C@H](CC(C)C)NC(=O)[C@H](CCCNC(=N)N)NC(=O)[C@H](CCCCN)NC(=O)[C@H](CCCNC(=N)N)NC(=O)[C@@H](N)CC(C)C)[C@@H](C)CC)C(=O)NCC(=O)N[C@@H](CCC(N)=O)C(=O)N[C@@H](CCCCN)C(=O)N[C@H](C(=O)N[C@@H](CCC(N)=O)C(=O)NCC(=O)N[C@@H](Cc1ccccc1)C(=O)N[C@H](C(=O)N1CCC[C@H]1C(=O)N[C@@H](CCCCN)C(=O)N[C@@H](CC(C)C)C(=O)O)C(C)C)[C@@H](C)CC` gave a lethal concentration of 2.66 µM (inhibition zone method; 11092618, LB 0.8% agar with 154 mM NaCl; overnight, 37 °C).
The FIC index of `CCCCCC(=O)NCC(=O)N[C@@H](CC(C)C)C(=O)N[C@@H](CC(C)C)C(=O)N[C@@H](CCCCN)C(=O)N[C@@H](CCCNC(=N)N)C(=O)N[C@H](C(=O)N[C@@H](CCCCN)C(=O)N[C@H](C(=O)N[C@@H](CC(C)C)C(=O)N[C@@H](CC(C)C)C(=O)NCCCC[C@H](NC(=O)[C@H](CC(C)C)NC(=O)[C@H](CC(C)C)NC(=O)[C@@H](NC(=O)[C@H](CCCCN)NC(=O)[C@@H](NC(=O)[C@H](CCCNC(=N)N)NC(=O)[C@H](CCCCN)NC(=O)[C@H](CC(C)C)NC(=O)[C@H](CC(C)C)NC(=O)CNC(=O)CCCCC)[C@@H](C)CC)[C@@H](C)O)C(N)=O)[C@@H](C)O)[C@@H](C)CC` is reported as 0.375 (checkerboard; ATCC 27853; together with: rifampicin).
For `CC[C@H](C)[C@H](NC(=O)[C@H](Cc1c[nH]cn1)NC(=O)[C@H](CCCCNC(=O)[C@@H](NC(=O)[C@H](CCCCN)NC(=O)[C@H](Cc1ccccc1)NC(=O)[C@H](CCCCNC(=O)[C@H](CC(C)C)NC(=O)[C@@H]1CCCN1C(=O)[C@H](CCCCN)NC(=O)C[C@@H]1O[C@@H](C)[C@@H](O)[C@@H](O)[C@@H]1O)NC(=O)[C@H](CC(C)C)NC(=O)[C@@H]1CCCN1C(=O)[C@H](CCCCN)NC(=O)C[C@@H]1O[C@@H](C)[C@@H](O)[C@@H](O)[C@@H]1O)[C@@H](C)CC)NC(=O)[C@@H](NC(=O)[C@H](CCCCN)NC(=O)[C@H](Cc1ccccc1)NC(=O)[C@H](CCCCNC(=O)[C@H](CC(C)C)NC(=O)[C@@H]1CCCN1C(=O)[C@H](CCCCN)NC(=O)C[C@@H]1O[C@@H](C)[C@@H](O)[C@@H](O)[C@@H]1O)NC(=O)[C@H](CC(C)C)NC(=O)[C@@H]1CCCN1C(=O)[C@H](CCCCN)NC(=O)C[C@@H]1O[C@@H](C)[C@@H](O)[C@@H](O)[C@@H]1O)[C@@H](C)CC)C(N)=O`, the MBIC was 20 µM (biofilm formation; PAO1; 24 h).
Under “MIC fold increase”, `C[C@@](O)(C(F)F)[C@H](NC(=O)c1ccc(C#CC#CC2CC2)cc1)C(=O)NO` is recorded as 4 (broth microdilution; PAO1; together with: mouse plasma 50%; baseline: CAMHB alone).
For `CC[C@H](C)[C@H](NC(=O)[C@H](CCCCN)NC(=O)[C@H](CCCCN)NC(=O)[C@H](CC(C)C)NC(=O)[C@H](CCCCN)NC(=O)[C@H](CCC(=O)O)NC(=O)[C@H](CCCCN)NC(=O)[C@@H](NC(=O)[C@H](CCCCN)NC(=O)[C@H](CC(N)=O)NC(=O)[C@H](CCCNC(=N)N)NC(=O)[C@H](Cc1ccccc1)NC(=O)[C@H](CCCCN)NC(=O)[C@H](CCCNC(=N)N)NC(=O)[C@H](CC(C)C)NC(=O)[C@H](CCCNC(=N)N)NC(=O)[C@H](CCCCN)NC(=O)[C@H](CCCNC(=N)N)NC(=O)[C@H](CC(C)C)NC(=O)CN)[C@@H](C)CC)C(=O)NCC(=O)N[C@@H](CCC(N)=O)C(=O)N[C@@H](CCCCN)C(=O)N[C@H](C(=O)N[C@@H](CCC(N)=O)C(=O)NCC(=O)N[C@@H](Cc1ccccc1)C(=O)N[C@H](C(=O)N1CCC[C@H]1C(=O)N[C@@H](CCCCN)C(=O)N[C@@H](CC(C)C)C(=O)N[C@@H](C)C(=O)N1CCC[C@H]1C(=O)N[C@@H](CCCNC(=N)N)C(=O)N[C@H](C(=O)N[C@@H](CC(=O)O)C(=O)N[C@@H](Cc1ccc(O)cc1)C(=O)O)[C@@H](C)O)C(C)C)[C@@H](C)CC`, the lethal concentration was 1.4 µM (inhibition zone; O1; LB agar, overnight).
`CC(C)C[C@@H]1NC(=O)[C@H](CCN)NC(=O)CSC[C@@H](C(=O)N[C@@H](CCN)C(N)=O)NC(=O)[C@H](CC(C)C)NC(=O)[C@H](CC(C)C)NC(=O)[C@H](CC(C)C)NC(=O)[C@@H]2CSCC(=O)N[C@@H](CCN)C(=O)N[C@@H](CC(C)C)C(=O)N[C@@H](CCN)C(=O)N[C@@H](CCCCNC(=O)[C@H](CCN)NC1=O)C(=O)N[C@@H](CCN)C(=O)N[C@@H](CC(C)C)C(=O)N[C@@H](CC(C)C)C(=O)N2`: “minimal biofilm inhibitory concentration” over 32 µg/mL (PAO1; 24 to 25 h).
With `CC[C@H](C)[C@H](NC(=O)[C@H](CCCCN)NC(=O)[C@H](CCCCN)NC(=O)[C@H](CC(C)C)NC(=O)[C@H](CCCCN)NC(=O)[C@H](CCC(=O)O)NC(=O)[C@H](CCCCN)NC(=O)[C@@H](NC(=O)[C@H](CCCCN)NC(=O)[C@H](CC(N)=O)NC(=O)[C@H](CCCNC(=N)N)NC(=O)[C@H](Cc1ccccc1)NC(=O)[C@H](CCCCN)NC(=O)[C@H](CCCNC(=N)N)NC(=O)[C@H](CC(C)C)NC(=O)[C@H](CCCNC(=N)N)NC(=O)[C@H](CCCCN)NC(=O)[C@H](CCCNC(=N)N)NC(=O)[C@H](CC(C)C)NC(=O)[C@@H](N)CCCNC(=N)N)[C@@H](C)CC)C(=O)NCC(=O)N[C@@H](CCC(N)=O)C(=O)N[C@@H](CCCCN)C(=O)N[C@H](C(=O)N[C@@H](CCC(N)=O)C(=O)NCC(=O)N[C@@H](Cc1ccccc1)C(=O)N[C@H](C(=O)N1CCC[C@H]1C(=O)N[C@@H](CCCCN)C(=O)N[C@@H](CC(C)C)C(=O)N[C@@H](CCC(N)=O)C(=O)N1CCC[C@H]1C(=O)N[C@@H](CO)C(=O)N[C@@H](CCCCN)C(=O)N[C@@H](CCC(N)=O)C(=O)N[C@@H](CO)C(=O)O)C(C)C)[C@@H](C)CC` the lethal concentration was 4.34 µM (inhibition zone method; 11092618, LB 0.8% agar with 154 mM NaCl; overnight, 37 °C).
`CN(C)S(=O)(=O)c1ccc(S(=O)(=O)N2CCC(n3c(=O)[nH]c4ccccc43)CC2)cc1` gave an IC50 of 94.2 µM (survival under NO stress; CIP 27853; 4 h, together with: NOC-5 5 µM).

Repeated from above:
`CC(C)C[C@@H]1NC(=O)[C@H](CCN)NC(=O)CSC[C@@H](C(=O)N[C@@H](CCN)C(N)=O)NC(=O)[C@H](CC(C)C)NC(=O)[C@H](CC(C)C)NC(=O)[C@H](CC(C)C)NC(=O)[C@@H]2CSCC(=O)N[C@@H](CCN)C(=O)N[C@@H](CC(C)C)C(=O)N[C@@H](CCN)C(=O)N[C@@H](CCCCNC(=O)[C@H](CCN)NC1=O)C(=O)N[C@@H](CCN)C(=O)N[C@@H](CC(C)C)C(=O)N[C@@H](CC(C)C)C(=O)N2`: “minimal biofilm inhibitory concentration” over 32 µg/mL (PAO1; 24 to 25 h).
`CN(C)S(=O)(=O)c1ccc(S(=O)(=O)N2CCC(n3c(=O)[nH]c4ccccc43)CC2)cc1` gave an IC50 of 94.2 µM (survival under NO stress; CIP 27853; 4 h, together with: NOC-5 5 µM).
